Measured values of several laboratories.
Each line is one published result; not all experiments were run side by side. ± marks the error that the study gave.

`Cc1cc(C)n(CCN(CCN)CCCCCCNC(=O)[C@@H](N)Cc2c[nH]cn2)n1.[99Tc+].[C-]#[O+].[C-]#[O+].[C-]#[O+]` gave a tissue uptake of 0.32 ± 0.03 %IA/g (BALB/c nude mice, A549 xenograft, bone; intravenous, 15 min).
For `COc1ccc(Nc2nc(Nc3ccc(OCCOCC[18F])cc3)ncc2Br)cc1`, the tissue uptake was 0.45 ± 0.03 %ID (ICR mice, S180 tumour, stomach; intravenous, 370 kBq, 60 min).
With `O=C(NCC1OC2CCC=CCCC2O1)c1ccc(COCCOCCOCC[18F])cc1` (stereo not drawn) the tissue uptake was 2.8 ± 0.2 %ID/g (healthy female BALB/c nude mice, heart; intravenous, 7.4 MBq per mouse, 15 min).
`CC(C)C[C@H](NC(=O)[C@@H](CCCCNC(=O)[C@@H](Cc1ccccc1)NC(=O)CCCCCCCNC(=O)CN1CCN(CC(=O)O)CCN(CC(=O)O)CCN(CC(=O)O)CC1)NC(=O)[C@H](Cc1ccc(O)cc1)NC(=O)[C@H](CO)NC(=O)[C@H](Cc1c[nH]c2ccccc12)NC(=O)[C@H](Cc1c[nH]cn1)NC(=O)[C@@H]1CCC(=O)N1)C(=O)N[C@@H](CCCNC(=N)N)C(=O)N1CCC[C@H]1C(=O)NCC(N)=O` [indium-111 labelled] has a tissue uptake of 1.24 ± 0.24 %ID/g (biodistribution; male athymic nude mice, DU-145 prostate cancer xenograft, bone; intravenous, 0.037 MBq, 0.5 h post-injection).
For `CCCC[C@H](NC(=O)CNC(=O)CNC(=O)[C@H](CCCCNC(=O)[C@H](CC(N)=O)NC(=O)C(C)c1ccc(CC(C)C)cc1)NC(=O)CN1CCN(CC(=O)O)CCN(CC(=O)O)CCN(CC(=O)O)CC1)C(=O)N[C@H]1CC(=O)NCCCC[C@@H](C(N)=O)NC(=O)[C@H](Cc2c[nH]c3ccccc23)NC(=O)[C@H](CCCNC(=N)N)NC(=O)[C@@H](Cc2ccccc2)NC(=O)[C@H](Cc2c[nH]cn2)NC1=O` (stereo partly drawn) [lutetium-177 labelled], the tissue uptake was 0.1 ± 0.02 %ID/g (C57 mice, tumour-bearing, brain; 2 h).
`CCCC[C@H](NC(=O)CCCCCCCNC(=O)CN1CCN(CC(=O)O)CCN(CC(=O)O)CC1)C(=O)N[C@H]1CC(=O)NCCCC[C@@H](C(N)=O)NC(=O)[C@H](Cc2c[nH]c3ccccc23)NC(=O)[C@H](CCCNC(=N)N)NC(=O)[C@@H](Cc2ccccc2)NC(=O)[C@H](Cc2c[nH]cn2)NC1=O` [fluorine-18 labelled] has a tissue uptake of 1.47 ± 0.21 %ID/g (C57 mice B16-F10 melanoma, heart; intravenous, 0.37 MBq, 0.5 h).
For `CCCC[C@H](NC(=O)CNC(=O)CNC(=O)[C@H](CCCCNC(=O)[C@H](CC(=O)O)NC(=O)C(C)c1ccc(CC(C)C)cc1)NC(=O)CN1CCN(CC(=O)O)CCN(CC(=O)O)CCN(CC(=O)O)CC1)C(=O)N[C@H]1CC(=O)NCCCC[C@@H](C(N)=O)NC(=O)[C@H](Cc2c[nH]c3ccccc23)NC(=O)[C@H](CCCNC(=N)N)NC(=O)[C@@H](Cc2ccccc2)NC(=O)[C@H](Cc2c[nH]cn2)NC1=O` (stereo partly drawn) [lutetium-177 labelled], the tissue uptake was 2.58 ± 0.41 %ID/g (C57 mice, tumour-bearing, heart; intravenous, 0.037 MBq, 0.5 h).
For `O=C(NCC1OC2CCC=CCCC2O1)c1ccc([18F])nc1` (stereo not drawn), the tissue uptake was 2.1 ± 0.7 %ID/g (healthy female BALB/c nude mice, muscle; intravenous, 7.4 MBq per mouse, 5 min).
`N#C[C@@H]1CCCN1C(=O)CNC(=O)c1ccnc2ccc(OCCCN3CCN(C(=O)CCc4ccc5c(c4)CN4CCN6CC(=O)[O][68Ga-]([O]C(=O)C4)([O]5)[O]c4ccc(CCC(=O)N5CCN(CCCOc7ccc8nccc(C(=O)NCC(=O)N9CCC[C@H]9C#N)c8c7)CC5)cc4C6)CC3)cc12` gave a tissue uptake of 0.88 ± 0.24 %ID/g (BALB/c nude mice, U-87 MG xenograft, heart; 1 h, blocking, added: DOTA-FAPI-04 40 nmol/mouse co-injected).
